Measured values from different studies.
Lines come from different studies, so protocols differ. “And” joins repeats or separate records; there may be more than shown. ± marks the error that the study gave.

Structure (SMILES) = COc1cc2c3c(n(CCCN4CCOCC4)c(=O)c2cc1OC)-c1cc2c(cc1C3=O)OCO2; test system = beagle dog, female, plasma; setting = oral, 1720 mg/m^2, gelatin capsule; AUC(0-inf) = 6300 ng·h/mL and 2340 ng·h/mL
Structure (SMILES) = CCCCCCCCCCCCCCCC(=O)N[C@@H](CCC(=O)NCCCC[C@@H]1NC(=O)[C@H]([C@@H](C)CC)NC(=O)[C@@H](NC(=O)[C@@H]2CCCN2C(=O)[C@H](Cc2ccccc2)NC(=O)[C@H](Cc2c[nH]cn2)NC(=O)[C@@H](NC(=O)[C@H](CC(=O)O)NC(=O)CC(C)C)[C@@H](C)O)CSSC[C@@H](C(=O)N[C@@H](CCCCN)C(N)=O)NC(=O)CNC(=O)[C@H](CCCCN)NC(=O)[C@H](CO)NC(=O)[C@H](CCCNC(=N)N)NC(=O)[C@@H]2CCCN2C(=O)[C@H](CCC(=O)O)NC(=O)[C@H](Cc2ccccc2)NC1=O)C(=O)O; test system = healthy volunteers, plasma; setting = subcutaneous, 10 mg single, lyophilised formulation; AUC(0-inf) = 16400 ± 2990 ng·h/mL
Structure (SMILES) = COc1nc(-c2cc(C)c(N[C@@H](C)c3cc(F)cc(F)c3)nn2)ccc1-n1cnc(C)c1; test system = cynomolgus monkey, male, plasma; setting = intravenous, 1 mg/kg; AUC(0-inf) = 3180 ng·h/mL
Structure (SMILES) = Cc1nc(-c2cnc(NC(C)C)n(C)c2=O)ccc1Oc1ccnc(-c2cnn(C)c2)c1; test system = Beagle dog, male, plasma; setting = oral, 30 mg/kg, crossover study, mean; AUC(0-inf) = 67300 ng·h/mL
Structure (SMILES) = C[C@@H](N)C1CCN(S(=O)(=O)c2cccc3cnccc23)CC1; test system = healthy volunteers, plasma; setting = oral, 150 mg, fed, single dose; AUC(0-inf) = 44.7 ng·h/mL
Structure (SMILES) = C[C@@H]1CN(CC(=O)N2CC(C)(C)c3ncc(Cc4ccc(F)cc4)cc32)[C@@H](CN2CCOC[C@H]2C)CN1; test system = cynomolgus monkey, male; setting = oral, 5 mg/kg; AUC(0-inf) = 80 ± 11 ng·h/mL
Structure (SMILES) = CNC(=O)c1ccc(-c2cnc3ncc(Cc4ccc5ncccc5c4)n3n2)cc1F; test system = human mild hepatic impairment NCI; setting = oral, 200 mg single dose, geometric mean; AUC(0-inf) = 6640 ng·h/mL
Structure (SMILES) = C=CC(=O)NC1CCN(c2ncc3ncnc(Nc4ccc(Oc5ccc6c(c5)ncn6C)c(C)c4)c3n2)CC1; test system = male beagle dog, plasma; setting = oral, 3 mg/kg, pentagastrin pretreatment; AUC(0-inf) = 15.5 µM·h
Structure (SMILES) = CCn1cc(C(=O)N2CCOCC2)c(=O)c2cc(NC3Cc4ccccc4C3)cnc21; test system = human, fasted, plasma; setting = oral, 1200 mg single dose, tablet, arithmetic mean; AUC(0-inf) = 37700 ng·h/mL
Structure (SMILES) = N#C[C@@]1(c2ccc3c(N)ncnn23)O[C@H](CO)[C@@H](O)[C@H]1O; test system = beagle dog male, plasma; setting = oral capsule, 6.5 mg/kg; AUC(0-inf) = 19300 ng·h/mL

For quick reference, copied from above:
Structure (SMILES) = C=CC(=O)NC1CCN(c2ncc3ncnc(Nc4ccc(Oc5ccc6c(c5)ncn6C)c(C)c4)c3n2)CC1; test system = male beagle dog, plasma; setting = oral, 3 mg/kg, pentagastrin pretreatment; AUC(0-inf) = 15.5 µM·h
